Measurements gathered from unrelated publications.
Every numbered part comes from another study and shows a few of its results, in no order.

Study 1 — method: RNA Bind-n-Seq; form: RNA; medium: in vitro; tested at: 1 µM; notes: whole 134-nt RNA, ends assumed; with: 150 mM KCl; reference: input library; reading: higher = stronger binding
Target: Ras GTPase-activating protein-binding protein 1, RRM domain (G3BP1, Homo sapiens, UniProt Q13283)
Sequence of UniProt Q13283 (whole entry, looked up): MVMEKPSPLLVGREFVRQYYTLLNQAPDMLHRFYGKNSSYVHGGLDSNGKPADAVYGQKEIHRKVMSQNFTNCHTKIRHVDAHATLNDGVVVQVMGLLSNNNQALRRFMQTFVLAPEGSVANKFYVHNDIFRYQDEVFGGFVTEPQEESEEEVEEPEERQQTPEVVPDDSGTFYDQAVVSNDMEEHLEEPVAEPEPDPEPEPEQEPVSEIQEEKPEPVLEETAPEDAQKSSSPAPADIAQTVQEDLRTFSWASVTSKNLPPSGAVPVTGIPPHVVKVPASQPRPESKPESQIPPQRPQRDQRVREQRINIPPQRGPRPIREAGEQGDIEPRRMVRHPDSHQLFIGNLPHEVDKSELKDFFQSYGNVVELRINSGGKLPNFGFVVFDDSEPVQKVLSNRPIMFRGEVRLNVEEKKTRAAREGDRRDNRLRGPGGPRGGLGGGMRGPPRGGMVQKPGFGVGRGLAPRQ
Shared flanks, not repeated: GGGAGUUCUACAGUCCGACGAUC … UGGAAUUCUCGGGUGUCAAGG
Oligonucleotide	log2 enrichment
GGCGGAGCAGCUGAUGGAGGAGUGGAACGAAGACCUAGACGGCAUGGAGGGUUUCGUGCUGGAGGGCAAGAAGUUUGCGCGGCUGCCGGA	-0.326
GCAGGAAGUAAAAACAAAUGGAUAUGCUUCGGAUAGUGGCAGGGGUGGGGGUUGCUAAGGAAAGGGUGGGAUGGGAGUGGGUAAAGAGUU	1.7
UGGGAGGUGGAUUUUGUUUAUUUUUUUAGCUCAUUUCCAGGGGUGGGAAUUUUUUUUUAAUAUGCGUCAUGAAUAAAGUUGUUUUUGAAA	1.63
UGCAUCUGCACUGGAGAAAUGGAAGACAGCAAUCCGGGAAGCUCAGACUUUCUCCAGGAUGCACGUGCUGCUUGGGAUGCUUGAUGCCUG	-0.0552
CUCAAGUCCUGUGCUACACAUCGUAUGUACCGAAUCGGGCCGGGGCCGGGCCGGAAAGUAUUAUGUUACGCCGUUCGGAUCUGCACUUCC	-1.14
GCAGGAAGUAAAAACAAAUGGAAAUGCCUCGGAUAGUGGCAGGGGUGGGGGUUGCUAAGGAAAGGGUGGGAUGGGAGUGGGUAAAGAGUU	1.2
GCAGGAAGUAAAAACAAAUGGAAAUGCUUCGGAUAGUGGCAGGGGUGGGGGUUGCUAAGGAAAGGGUGGGAUGGGAGUGGCUAAAGAGUU	1.2
CUCAAGUCCUGUGCUACACAUCGUAUGUACCGAAUCGGGAGGGUGGGAAAGGGAAAGUAUUAUGUUACGCCGUUCGGAUCUGCACUUCCA	0.664
CCUCAAGUCCUGUGCUACACAUCGUAUGUACCGAAUCGGAGGAAAGGUUUGGAAAGUAUUAUGUUACGCCGUUCGGAUCUGCACUUCCAG	-0.26
UUAGAUGAGUGACCGAGGAGGUGGCGUUCCUUUGAGGAAAAUUGACAGACUUUUCAACUACAUGUAUUCAACUGCACCAAGACCUCGUGU	-0.146
CCUGUGCUACACAUCGUAUGUACCGAAUCGGAAAAAAAGGAAAAAAAGGGGAAAAAAAGGAAAGUAUUAUGUUACGCCGUUCGGAUCUGC	0.159
ACCAUGCAGGUGGGCAUCUUUGGGAAGUGGGGCAAGGGGGGGAUAGGGAAAGGGGUAACACUUUGGGAACAGGUGGUCCCAGGUCGUUUC	-0.491
GUCCUGUGCUACACAUCGUAUGUACCGAAUCAAAUUUAAACCCCCCCAAAUUUUUAAAAAAGUAUUAUGUUACGCCGUUCGGAUCUGCAC	-0.0994
UGGAGGAGCCAUAGAAUAUUAAGGAUGAAUUCAGGAAGGCCUGAGACCAUGGAAAACUUGCCUGCUCUCUACACUAUUUUCCAAGGAGAG	-0.282

Study 2 — method: aptamer microarray, sandwich; form: DNA with 2'F-ANA; medium: in vitro; tested at: 200 nM; with: Cy3 exosite-II aptamer, 400 nM; reading: higher = stronger binding; oligonucleotide: GGTTGGTGTGGTTGG
Target: Prothrombin, mature alpha-thrombin (F2, Homo sapiens, UniProt P00734)
Notes: whole 15-mer aptamer, many near background
Modification	mean fluorescence intensity [a.u.]
2'F-ANA at 1 3 5 7 8 9 10 12	211
2'F-ANA at 2 4 5 7 15	71.2
2'F-ANA at 2 4 10 11 12 13	97.8
2'F-ANA at 1 3 5 7 8 11 12 13	94
2'F-ANA at 2 4 5 6 8 9 10 12 13 15	82.8
2'F-ANA at 2 3 10 11 13 14 15	222
2'F-ANA at 1 2 3 5 6 7 8 10 15	54.7
2'F-ANA at 1 2 3 4 5 7 10 14 15	130
2'F-ANA at 1 2 3 5 6 7 8 9 11 14	48
2'F-ANA at 3 5 7 8 9 10 11 12 15	72.2
2'F-ANA at 1 2 7 8 10 12 15	69.1
2'F-ANA at 1 2 4 7 9 11 13 15	75
2'F-ANA at 8 10 12 15	225
2'F-ANA at 1 5 6 8 9 11	57
2'F-ANA at 7 8 12 13 14 15	293
2'F-ANA at 3 4 9 11 13 14	289
2'F-ANA at 2 4 8 12 15	816
2'F-ANA at 1 3 5 6 7 9 11 13	54.7
2'F-ANA at 1 7 10 12 14	56
2'F-ANA at 1 6 7 8 10 13 14	107
2'F-ANA at 2 4 5 7 8 9 12 13 14	46.9

Study 3 — method: universal PBM; form: double-stranded DNA, one strand shown; medium: in vitro; tested at: not given; reading: higher = stronger binding
Target: Sal-like protein 4, full length isoform B (SALL4, Homo sapiens, UniProt Q9UJQ4-2, residues 1-616)
Notes: 8-mer, flanks averaged, mean of replicates
Oligonucleotide	E-score
ACAAGTAT	0.244
GCGCAATA	0.139
CAAAGTAC	0.0676
ACCCTCTC	-0.141
CACGGGGG	-0.286
ATCTTGCG	0.0815
GCACAGGA	-0.211
AACGTACG	0.141
CTTAGAGC	-0.0624
CTCATCGC	-0.124
CTCGTTTC	-0.0724
CCCGTTTC	-0.147
ATGAACGC	0.0882
ACAACACA	0.0608
ACAGGACA	0.015
AATCAGGA	0.00873
TCTCCTCA	0.0623
GACTTTCC	-0.0924
AGTTCATC	0.0685
AGTCGAGG	-0.244
CAGGTGCG	-0.0988
ACGGCGTA	0.0455
CTTGACGA	-0.176

Study 4 — method: protein binding microarray; form: double-stranded DNA, one strand shown; medium: in vitro; tested at: not given; reference: not given; reading: higher = stronger binding
Target: Histone acetyltransferase KAT6A, winged helix 1, GST fusion (KAT6A, Homo sapiens, UniProt Q92794, residues 1-85)
Notes: 8-mer, flanks averaged, mean of 2 arrays, mostly near background
Residues (chain): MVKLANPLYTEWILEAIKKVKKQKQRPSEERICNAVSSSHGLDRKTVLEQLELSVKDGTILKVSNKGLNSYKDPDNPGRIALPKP
Oligonucleotide	E-score
CCGAGGTC	0.138
CGTGATGC	0.0594
AGTCGCGC	0.264
CACTAATC	-0.0253
AACTGTAC	-0.0651
CGGGGCAC	0.3
CATATTAA	-0.0198
TATTTAAA	-0.0605
AATGTCGA	-0.233
CTGCATAA	-0.208
GGGGGTGA	-0.0334
CAGATTGA	0.0451
CTGCAAAG	-0.175
ACCAGGGA	-0.316
CTGAGGTC	-0.171
ATAATCAT	-0.146
CCGACCGG	0.375
CAAAAATA	-0.109
TGAGCCCA	-0.179
AGAGAGTG	-0.0929
AGCAATGA	-0.276
GGCCGTGA	0.34
ATTATGTA	0.0454
CTCGCTCC	-0.0583
CGTCATAC	0.0608

Study 5 — method: RNA Bind-n-Seq; form: RNA; medium: in vitro; tested at: 365 nM; reference: no-protein control; reading: higher = stronger binding
Target: RNA binding protein fox-1 homolog 2, RRM domain, GST-SBP tag (RBFOX2, Homo sapiens, UniProt O43251-10, residues 100-194)
Notes: natural RNA segment, single round, ends assumed
Shared flanks, not repeated: GGGAGUUCUACAGUCCGACGAUC … UGGAAUUCUCGGGUGCCAA
Target sequence (chain): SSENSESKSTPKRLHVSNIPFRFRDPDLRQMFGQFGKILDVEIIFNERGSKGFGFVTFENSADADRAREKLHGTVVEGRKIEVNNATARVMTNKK
Oligonucleotide	RBNS enrichment (R)
AGAAGUUGGGGGGGAUGUGAAAAUAAUUUUAUGAGGUUGUCUAAAAUAAAGAGUAGUUUCUUAUCCUGGUGUUUUCAGUAUUUUUUGCAUUUCUGUACAGCCAAUAUCAC	1.71
AGGAUGUGAUAUAUAAGUGUACAUAUGUGCUGUACACCUGGGACCUUCACCACUGUAGAUCCCAUGCAUGGAUCUAUGUAGUAUGCUCUGACUCUAAUAGGACUGUAUAU	4.36
AUAGUUUGUGUAUAUUGACAGAGCUCUUUUAUAACUAAAGCAAAUUUAAUUUUUUUGUACUAGAAAAAAAUUUGAACAUUUUAGUUCUUGGUUAUAAAAAUGUUAAUUCA	0.932
AAACCUUGUUUGUUUUAUUCACCAUCAUGUACCAAGUGCUUGGCACAUAGUGGGCCUUCAUUAAAUGUUUGUUGAAUAAAAGAGGGAAGAAGGCAAGCCAACCUUAGCUA	0.37
ACCUUGCUUUUGUGAACACGUCACUGCAUAGGUUCUGAGAGGACCUGGCUGGGUUUAUUUAAGAGUGGGAGAGCAUCCAUUGUCCAAACUGAGAGCAGCAACAGCCCUCU	2.75
AUGUGUCAAAAAUUAUUUCACUUGUAUGUGACUAUUAUCUUAACUUGUAACAAUUUAUGUUUUACAGUUCCUUUUACAAAGUGUAUUUUUACUCCAGUGUGUCUUGGCUU	0.34
GUGUCAGACACUCAACUGACAUUACUACUUUAGUUCCUUUUGCUUUUUUCAUUUAUCUGUGGAAACAACAGAGGUCUCUCUCUAAACCUGUUUUGUGUCAGUUUGGUGUG	0.265
UAGGCCUGGCUUUCUCAACUGCCUGAGGCUGUUGCGCAGCAUUGCUGCCUCAUGUGACUGCCGUGCCUGUGAAUACGCAGAACCAGGACUCCACCCCACCGUGGAAAGGG	0.677
ACUUGGAGGGGUUUAUUGACUCUCCCCCCCCCUCCCCCGCUCUGUGACUUUUUUUUUUUUCUUCUCCCCAUUGGGUUUGCCUGUCGCUAACUAGCAUAGGUCCCACAGAG	1.09
UUUGCAAUUGCUUUUGAUUUUUAGUCCUUUGGAACAAAUGUGUGAUGUUAUGUCUGAUGUUGUGUUUUUAGAGCUGUGAAAAGUCUGAAAAAUUUCAAGGGGUAUUAUUU	0.499
AUCAUCUGUGGUGGGAAAAGCUAUGUAAAUAGGUAGAUUGUAUAGAGAGACUAUCUUGUGUUGUGCCUGUAUGAAUUUUUAAAAGUUGUUGACUGGAUUUUGCAAAAGGA	1.01
AUCGGACCAAAUAUAUUGAGACUUAGUUUUGAAUGGAGUCAUGUUCCUCUAAGGUGGUUCGAUGUGAGGCGACCUGAAGCUCAGCCCUCGGGAAGCUUCUUGUGUCUGGA	0.61
